{"data": "Experimental data gathered from unrelated publications", "note": "Each numbered part is a random draw from the data of one study; scales do not carry over between parts. Positions count from the first letter of the parent shown."}
{"data": "Study 1", "target": "Ras GTPase-activating protein-binding protein 1, full length (G3BP1, Homo sapiens, UniProt Q13283)", "technique": "RNA Bind-n-Seq", "form": "RNA", "matrix": "in vitro", "tested at": "200 nM", "setting": "whole 134-nt RNA, ends assumed", "with": "150 mM KCl", "baseline": "input library", "reading": "higher = stronger binding", "constant ends, left off below": "GGGAGUUCUACAGUCCGACGAUC … UGGAAUUCUCGGGUGUCAAGG", "UniProt Q13283, sequence (whole entry, looked up)": "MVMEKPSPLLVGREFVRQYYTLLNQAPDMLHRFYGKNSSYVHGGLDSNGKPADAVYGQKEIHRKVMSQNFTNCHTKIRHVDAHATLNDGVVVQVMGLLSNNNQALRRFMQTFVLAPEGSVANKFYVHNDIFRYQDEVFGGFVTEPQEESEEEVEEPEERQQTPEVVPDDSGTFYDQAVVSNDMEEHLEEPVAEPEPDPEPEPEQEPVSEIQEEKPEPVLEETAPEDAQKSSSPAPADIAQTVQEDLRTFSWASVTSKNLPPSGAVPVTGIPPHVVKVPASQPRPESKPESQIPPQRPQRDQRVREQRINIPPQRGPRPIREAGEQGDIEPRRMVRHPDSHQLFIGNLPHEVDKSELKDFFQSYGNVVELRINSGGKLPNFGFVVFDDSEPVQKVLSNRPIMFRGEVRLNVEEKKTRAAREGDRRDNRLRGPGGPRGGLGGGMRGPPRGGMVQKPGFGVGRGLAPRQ"}
{"Oligonucleotide": "CACAGACAACACGCACCCACACAGACACAGAGGGAAGGGGUUGGGAUGGGGACAGGGUGUACAGCAGGGCGGGGUAGGACCCCAGCCCCU", "log2 enrichment": 1.79}
{"Oligonucleotide": "CCUGUGCUACACAUCGUAUGUACCGAAUCGGGAAAAAAAGGGAAAAAAAGGAAAAAAAGGGAAAGUAUUAUGUUACGCCGUUCGGAUCUG", "log2 enrichment": -0.865}
{"Oligonucleotide": "GCAGGAAGUAAAAACUAAUGGAAAUGCUUCGGAUAGUGGCAGGGGUGGGGGUUGCUAAGGAAAGGGUGGGAUGGGAGUGGGUAAAGAGUU", "log2 enrichment": 1.15}
{"Oligonucleotide": "UCCUGUGCUACACAUCGUAUGUACCGAAUCGGGUUUUUUGGGUUUUUUGGUUUUUUGGGAAAGUAUUAUGUUACGCCGUUCGGAUCUGCA", "log2 enrichment": -0.69}
{"Oligonucleotide": "UGGGAGGUGGAUUUUGUUUAUUUUUUUAGCUCAUUUCCAGGGGUGGGAAUUUUUUAUUAAUAUGUGUCAUGAAUAAAGUUGUUUUUGAAA", "log2 enrichment": 0.274}
{"Oligonucleotide": "GUGCUACACAUCGUAUGUACCGAAUCGGGGUUUUUUUGGGGAAAAAAAGGGGAAAAAAAGGGGAAAGUAUUAUGUUACGCCGUUCGGAUC", "log2 enrichment": -0.361}
{"Oligonucleotide": "CCUGUGCUACACAUCGUAUGUACCGAAUCGGGAAAAAGGGAAAAAAAGGGUUUUUUUGGGAAAGUAUUAUGUUACGCCGUUCGGAUCUGC", "log2 enrichment": -0.867}
{"Oligonucleotide": "GUCCUGUGCUACACAUCGUAUGUACCGAAUCGGGGUUUUUGGGGAGGGGAAAAAGGGGAAAGUAUUAUGUUACGCCGUUCGGAUCUGCAC", "log2 enrichment": 0.218}
{"Oligonucleotide": "UAACUUUAGAGGAGGAUCUGAUGGAUAUGGUAGUGGACGUGGAUUUGGGGAUGGCUAUAAUGGGUAUGGAGGAGGACCUGGAGGUGGCAA", "log2 enrichment": 0.38}
{"Oligonucleotide": "UCCUGUGCUACACAUCGUAUGUACCGAAUCGGGGAAAAAAAGGGGAGGGGAAAAAGGGGAAAGUAUUAUGUUACGCCGUUCGGAUCUGCA", "log2 enrichment": 0.511}
{"data": "Study 2", "Substance": "PhoQ, residues 284 288 289 292 302 303 ALASRC", "technique": "Sort-seq", "item": "YFP reporter", "matrix": "E. coli", "setting": "PhoQ-PhoP variant library", "with": "10 µM Mg2+", "baseline": "high Mg2+ state", "reading": "higher = stronger signaling"}
{"target": "PhoP, residues 12 14 15 18 19 GMGLL (Escherichia coli, UniProt P23836)", "fold induction": 1.79}
{"target": "PhoP, residues 12 14 15 18 19 QQAYL (Escherichia coli, UniProt P23836)", "fold induction": 9.73}
{"target": "PhoP, residues 12 14 15 18 19 LFHKL (Escherichia coli, UniProt P23836)", "fold induction": 7.24}
{"data": "Study 3", "target": "CCND3, cyclin fold, Cln2 fusion (human)", "technique": "yeast growth competition, sequencing", "matrix": "yeast", "setting": "weak parent motif", "baseline": "not given", "reading": "higher = stronger binding", "parent": "CDC6 docking peptide (human); TLKGRRLVFDNQL; partner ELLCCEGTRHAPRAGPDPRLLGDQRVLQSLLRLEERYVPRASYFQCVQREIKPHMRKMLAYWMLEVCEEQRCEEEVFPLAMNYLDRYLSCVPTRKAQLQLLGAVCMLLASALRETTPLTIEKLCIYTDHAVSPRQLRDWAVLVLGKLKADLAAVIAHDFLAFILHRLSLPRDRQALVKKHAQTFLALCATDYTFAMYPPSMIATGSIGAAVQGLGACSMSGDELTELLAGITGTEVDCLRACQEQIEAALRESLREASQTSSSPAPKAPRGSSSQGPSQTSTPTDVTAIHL"}
{"Change": "N11W", "normalised enrichment score": 0.17}
{"Change": "K3P", "normalised enrichment score": 0.0483}
{"Change": "L7D", "normalised enrichment score": 0.109}
{"Change": "N11Q", "normalised enrichment score": 0.109}
{"Change": "D10W", "normalised enrichment score": 0.127}
{"Change": "G4M", "normalised enrichment score": 0.202}
{"Change": "D10N", "normalised enrichment score": 0.182}
{"data": "Study 4", "target": "Sal-like protein 4, full length isoform B (SALL4, Homo sapiens, UniProt Q9UJQ4-2, residues 1-616)", "technique": "universal PBM", "form": "double-stranded DNA, one strand shown", "matrix": "in vitro", "tested at": "not given", "setting": "8-mer, flanks averaged, mean of replicates", "reading": "higher = stronger binding", "Residues (chain)": "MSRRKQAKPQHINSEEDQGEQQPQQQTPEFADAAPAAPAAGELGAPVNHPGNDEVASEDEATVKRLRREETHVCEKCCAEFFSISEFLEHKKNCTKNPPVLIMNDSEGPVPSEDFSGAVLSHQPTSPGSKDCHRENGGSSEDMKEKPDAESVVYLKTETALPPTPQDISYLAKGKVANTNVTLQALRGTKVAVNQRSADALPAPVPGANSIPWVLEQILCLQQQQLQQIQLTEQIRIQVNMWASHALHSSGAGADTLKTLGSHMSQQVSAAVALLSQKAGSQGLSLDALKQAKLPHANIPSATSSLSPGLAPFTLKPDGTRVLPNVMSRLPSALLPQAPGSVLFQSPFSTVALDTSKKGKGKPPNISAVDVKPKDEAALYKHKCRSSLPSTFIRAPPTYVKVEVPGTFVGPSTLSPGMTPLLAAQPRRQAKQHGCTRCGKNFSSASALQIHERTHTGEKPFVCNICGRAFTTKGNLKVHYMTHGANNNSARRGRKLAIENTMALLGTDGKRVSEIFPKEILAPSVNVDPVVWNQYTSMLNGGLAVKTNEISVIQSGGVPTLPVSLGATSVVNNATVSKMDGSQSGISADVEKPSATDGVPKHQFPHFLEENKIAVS"}
{"Oligonucleotide": "GCTGATCA", "E-score": -0.0991}
{"Oligonucleotide": "CCGAACAG", "E-score": -0.082}
{"Oligonucleotide": "AAAGGCTC", "E-score": -0.098}
{"Oligonucleotide": "CCGTCTAG", "E-score": -0.228}
{"Oligonucleotide": "AAAAGGCA", "E-score": 0.147}
{"Oligonucleotide": "GTCCTGTA", "E-score": 0.00082}
{"Oligonucleotide": "ATTGATTA", "E-score": 0.324}
{"Oligonucleotide": "CAAGGGAG", "E-score": -0.0882}
{"Oligonucleotide": "GAGGAGCA", "E-score": -0.261}
{"Oligonucleotide": "AGTATGCC", "E-score": -0.0345}
{"Oligonucleotide": "AAGGAATA", "E-score": 0.217}
{"Oligonucleotide": "AAAATAGA", "E-score": 0.329}
{"Oligonucleotide": "TAAGCACA", "E-score": 0.0582}
{"Oligonucleotide": "GCTGACCC", "E-score": -0.172}
{"Oligonucleotide": "GAGTTAGC", "E-score": -0.0661}
{"Oligonucleotide": "AGCCCGAG", "E-score": -0.224}
{"Oligonucleotide": "CATTTACA", "E-score": 0.224}
{"note": "Repeated from above (study 4):"}
{"Oligonucleotide": "AAGGAATA", "E-score": 0.217}
{"Oligonucleotide": "AAAATAGA", "E-score": 0.329}
{"Oligonucleotide": "TAAGCACA", "E-score": 0.0582}
